Results of several laboratories.
A part holds a random share of what one study measured. Substitutions count along the parent as printed.
UniProt P25774, sequence (whole entry, looked up): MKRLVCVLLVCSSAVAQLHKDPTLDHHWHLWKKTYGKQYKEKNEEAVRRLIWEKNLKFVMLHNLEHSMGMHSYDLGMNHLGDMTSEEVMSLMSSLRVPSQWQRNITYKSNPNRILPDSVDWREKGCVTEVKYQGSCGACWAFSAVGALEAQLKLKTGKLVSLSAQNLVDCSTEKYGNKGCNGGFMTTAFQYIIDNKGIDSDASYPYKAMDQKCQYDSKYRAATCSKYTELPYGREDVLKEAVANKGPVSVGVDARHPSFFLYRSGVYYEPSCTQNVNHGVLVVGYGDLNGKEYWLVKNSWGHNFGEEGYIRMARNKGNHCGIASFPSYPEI

Sample 1 — observed: peptide-MHC binding; form: peptide; concentration: concentration not given
Target: HLA class I histocompatibility antigen, A alpha chain, allele A*80:01 (Homo sapiens, UniProt P04439)
| Sequence | binding |
| --- | --- |
| ISDEFMWRY | inactive |
| TKDTNDNNL | inactive |
| MTDLSKKGY | inactive |
| LESLTDREL | inactive |
| ESDPEGALW | inactive |
| KARNIISPV | inactive |
| QVKRREGMF | inactive |
| NSRHNAQHK | inactive |

Sample 2 — target: CCNE1, cyclin fold, Cln2 fusion (human); technique: yeast growth competition, sequencing; matrix: yeast; setting: strong parent motif; relative to: not given; reading: higher = stronger binding
Starting sequence: viral docking peptide; TSVRRALFTGGSD; partner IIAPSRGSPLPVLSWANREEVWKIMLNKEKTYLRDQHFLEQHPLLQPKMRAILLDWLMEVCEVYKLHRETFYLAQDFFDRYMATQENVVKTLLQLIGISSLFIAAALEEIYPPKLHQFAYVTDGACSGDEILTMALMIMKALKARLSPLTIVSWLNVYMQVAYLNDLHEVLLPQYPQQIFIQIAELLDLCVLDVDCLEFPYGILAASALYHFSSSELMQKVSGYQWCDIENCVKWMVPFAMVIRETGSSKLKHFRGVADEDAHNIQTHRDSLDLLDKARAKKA
| Variant | normalised enrichment score |
| --- | --- |
| TSVRRALFTGESD [G11E] | 6.02 |
| TSVRRALVTGGSD [F8V] | 0.206 |
| TSYRRALFTGGSD [V3Y] | 3.51 |
| TSERRALFTGGSD [V3E] | 0.766 |
| TSVRRALFTSGSD [G10S] | 6.01 |
| TSVRRALFTGQSD [G11Q] | 5.63 |
| TSVRRALSTGGSD [F8S] | 0.106 |
| TSVRRALFTGASD [G11A] | 5.45 |

Sample 3 — target: UBE2D4 UBC core domain (UniProt Q9Y2X8); technique: yeast two-hybrid; matrix: yeast; setting: mostly zero background; relative to: not given; reading: higher = stronger interaction
B1: RNF112 RING domain (UniProt Q9ULX5); chain QPMAPRELPTCSICLERLRDPISLDCGHDFCIRCFSTHRLPGCEPPCCPECRKICKQKRGLR
B2: PEX2 RING domain (UniProt P28328); chain DNTLATSGKECALCGEWPTMPHTIGCEHIFCYFCAKSSFLFDVYFTCPKCGTEVHSLQPLK
B3: RNF4 RING domain (UniProt P78317); chain TGLRPSGTVSCPICMDGYSEIVQNGRLIVSTECGHVFCSQCLRDSLKNANTCPTCRKKINHKRYHP
B4: ANKIB1 RING domain (UniProt Q9P2G1); chain LSPGDLDTSLCDICMCSISVFEDPVDMPCGHDFCRGCWESFLNLKIQEGEAHNIFCPAYDCFQLVPVDIIE
Target sequence (chain): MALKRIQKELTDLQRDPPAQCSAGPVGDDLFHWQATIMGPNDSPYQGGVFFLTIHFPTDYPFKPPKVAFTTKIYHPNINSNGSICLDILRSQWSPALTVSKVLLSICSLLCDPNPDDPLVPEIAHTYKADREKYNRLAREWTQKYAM
| Sequence | lacZ reporter activity |
| --- | --- |
| ISNDSETLEECMVCSDMKRDTLFGPCGHIATCSLCSPRVKKCLICKEQVQSRTKIE (MIB1 RING domain (UniProt Q86YT6)) | 0 |
| B1 (RNF112 RING domain) | 0 |
| QLQDEEDDSLCRICMDAVIDCVLLECGHMVTCTKCGKRMSECPICRQYVVRAVHVF (RNF34 RING domain (UniProt Q969K3)) | 0 |
| B2 (PEX2 RING domain) | 0 |
| B3 (RNF4 RING domain) | 3490 |
| KIKDLNEHIVCCLCAGYFVDATTITECLHTFCKSCIVKYLQTSKYCPMCNIKIHETQPLL (PCGF1 RING domain (UniProt Q9BSM1)) | 0 |
| MANWVFCNRCFQPPHRTSCFSLTNCGHVYCDACLGKGKKNECLICKAPCRTVLLSK (RNF212 RING domain (UniProt Q495C1)) | 0 |
| B4 (ANKIB1 RING domain) | 0 |

Other studies, line by line
| Structure (SMILES) | target | quantity | result |
| --- | --- | --- | --- |
| CN(C)C(=O)COC(=O)Cc1ccc(OC(=O)c2ccc(NC(=N)N)cc2)cc1 | Cathepsin S (CTSS, Homo sapiens, UniProt P25774) | IC50 | > 10 µM |

A few entries again (sample 3):
| Sequence | lacZ reporter activity |
| --- | --- |
| ISNDSETLEECMVCSDMKRDTLFGPCGHIATCSLCSPRVKKCLICKEQVQSRTKIE (MIB1 RING domain (UniProt Q86YT6)) | 0 |
| B1 (RNF112 RING domain) | 0 |
| QLQDEEDDSLCRICMDAVIDCVLLECGHMVTCTKCGKRMSECPICRQYVVRAVHVF (RNF34 RING domain (UniProt Q969K3)) | 0 |
